Experimental data pooled from the literature.
Lines come from different studies, so protocols differ. Values joined by “and” are separate records of one study, mostly repeats; a detail may differ. ± gives the spread as reported.
FFAR4: Free fatty acid receptor 4 (FFAR4, Homo sapiens, UniProt Q5NUL3)
PDE1C isoform PDE1C2: Dual specificity calcium/calmodulin-dependent 3',5'-cyclic nucleotide phosphodiesterase 1C, isoform PDE1C2 (PDE1C, Homo sapiens, UniProt Q14123)
GAP50: Glideosome-associated protein 50 (GAP50, Plasmodium falciparum, UniProt Q8I2X3)
TRPM8: Transient receptor potential cation channel subfamily M member 8 (TRPM8, Homo sapiens, UniProt Q7Z2W7)
NADH dehydrogenase [ubiquinone] iron-sulfur protein 7, mitochondrial/NADH dehydrogenase [ubiquinone] iron-sulfur protein 2, mitochondrial/MT-ND1: NADH dehydrogenase [ubiquinone] iron-sulfur protein 7, mitochondrial/NADH dehydrogenase [ubiquinone] iron-sulfur protein 2, mitochondrial/MT-ND1 (Homo sapiens, UniProt O75251+O75306+P03886)

Compound | target | assay | test system | setting | how to read | quantity | value
FC(F)(F)c1cc(Nc2nc(Cl)nc(Cl)n2)cc(C(F)(F)F)c1 | CD209 antigen (CD209, Homo sapiens, UniProt Q9NNX6) | binding, grating-coupled interferometry | Man(α1,2)Man-PEG3 chip | – | – | Hill slope | 2.7
CCCCCCNc1[nH]c(=O)[nH]c(=O)c1N=O | FFAR4 | antagonist, β-arrestin recruitment | CHO cells | 10 µM, with: 4 µM TUG-891 | – | inhibition | 13 ± 3%
Cc1ccc(C(=O)Nc2ccc3ccccc3c2)o1 | Otop1 (Mus musculus, UniProt Q80VM9) | proton current, whole-cell patch clamp | cells expressing mouse Otop1 | 50 µM, pH 6.0 | – | peak current ratio Ip2/Ip1 | 3.5 and 3.32 and 2.8 and 3.15 and 2.98
CNC(=O)[C@@]12C[C@@H]1[C@@H](n1cnc3c(NCCc4ccc(O)c(O)c4)nc(C#Cc4ccc(Br)s4)nc31)[C@H](O)[C@@H]2O | Adenosine receptor A3 (Mus musculus, UniProt Q61618) | radioligand binding | HEK293 membranes | – | reference: mouse A3 over human A3 affinity | selectivity ratio | 23 to 25 fold
COc1cccc(/C=C2\OC(=O)c3c2cc(C)[nH]c3=O)c1 | PDE1C isoform PDE1C2 | enzyme activity, inhibitor | – | with: 3H-cGMP substrate | – | binding free energy | -8.39 kcal/mol
CCc1nc2ccccc2n1C[C@H](O)COc1cc(C)ccc1Cl | GAP50 | binding, surface plasmon resonance | – | 1:1 binding model | – | kon | 23800 M⁻¹ s⁻¹
Nc1nc2c(ncn2[C@@H]2O[C@H](COP(=O)(O)O)[C@@H](O)[C@H]2O)c(=O)[nH]1 | GUK1 (Homo sapiens, UniProt Q16774, S37P) | enzyme activity, NADH-coupled | – | 31.25 µM | – | reaction rate | 0.0225 s⁻¹ and 0.557 s⁻¹ and 1.69 s⁻¹
Cc1ccc(S(=O)(=O)NCc2ccc(CNC(=O)c3ccccc3)cc2)cc1 | C-X-C chemokine receptor type 4 (CXCR4, Homo sapiens, UniProt P61073) | binding, inhibitor, competitive binding | MDA-MB-231 | with: biotinylated TN14003 | – | EC | > 1000 nM
COc1cccc2c(Nc3ccc4[nH]c(C(=O)N/N=C/c5ccc(SC)cc5)cc4c3)cc(C)nc12 | Nuclear receptor subfamily 4 group A member 2, LBD (Homo sapiens, UniProt P43354) | reporter gene, Gal4 hybrid reporter | – | 1 µM | reference: vehicle | activation | 1.09 ± 0.09 fold
CCCCCCCCCNc1cc(=O)[nH]c(=O)[nH]1 | FFAR4 | antagonist, β-arrestin recruitment | CHO cells | 10 µM | – | inhibition | 26 ± 2%
C#CCN(CCCN1CCN(C2CCCCC2)CC1)Cc1ccc(C(=O)c2ccc([N+](=O)[O-])cc2)cc1 | Sigma intracellular receptor 2 (TMEM97, Homo sapiens, UniProt Q5BJF2) | radioligand binding | RT-4 cell membranes | – | reference: sigma1 over sigma2 receptor | selectivity ratio | ~10 fold
C1=C/COCc2cc(ccc2OCCN2CCCC2)Nc2nccc(n2)-c2cccc(c2)COC/1 | Mitogen-activated protein kinase kinase kinase 12 (MAP3K12, Homo sapiens, UniProt Q12852) | – | – | concentration not given, kinase construct DLK | reference: control | binding | 22%
Cc1cc2c(c(=O)[nH]1)C(=O)O/C2=C\c1cc(Cl)ccc1OC(C)C | PDE1C isoform PDE1C2 | enzyme activity, inhibitor | – | with: 3H-cGMP substrate | – | binding free energy | -10 kcal/mol
C=CC(=O)N1CCC(C(=O)NCC(=O)N2CCN(c3nc(-c4cnc(N)nc4C(F)F)nc(N4CCOCC4)n3)CC2)CC1 | Myosin light chain kinase family member 4 (MYLK4, Homo sapiens, UniProt Q86YV6) | KINOMEscan | – | 1 µM | – | remaining binding | 100%
CCCCCCCCNc1cc(=O)[nH]c(=O)[nH]1 | FFAR4 | antagonist, β-arrestin recruitment | CHO cells | 10 µM | – | inhibition | 22 ± 9%
Nc1ncnc2c1ncn2[C@@H]1O[C@H](COP(=O)(O)CP(=O)(O)OP(=O)(O)O)[C@@H](O)[C@H]1O | P2X purinoceptor 1 (P2RX1, Homo sapiens, UniProt P51575, K140A) | calcium influx | – | 10 nM | reference: ionomycin response | calcium influx | 0% and 0.0282%
C=CC(=O)N1CCC(COCC(=O)N2CCN(c3nc(-c4cnc(N)nc4C(F)F)nc(N4CCOC[C@@H]4C)n3)CC2)CC1 | Calcium/calmodulin-dependent protein kinase type 1D (CAMK1D, Homo sapiens, UniProt Q8IU85) | KINOMEscan | – | 1 µM | – | remaining binding | 100%
NCCCS(=O)(=O)O | Sodium- and chloride-dependent taurine transporter (SLC6A6, Homo sapiens, UniProt P31641, G62A) | binding, microscale thermophoresis | – | 500 µM, room temperature, with: 50 nM labelled protein | higher = more binding | normalised MST signal | 0.035
O=c1nc(SCc2cc(F)cc(C(F)(F)F)c2)nc(SCc2ccc3nc(Cl)ccc3c2)[nH]1 | DNA topoisomerase 2-alpha (TOP2A, Homo sapiens, UniProt P11388) | ATPase activity | – | 125 µM, with: ATP 0.05 mM | – | ATP hydrolysis rate | 0.498 µM/min and 0.207 µM/min
Nc1ncnc2c1ncn2[C@@H]1O[C@H](COP(=O)(O)OP(=O)(O)O)[C@@H](O)[C@H]1O | Creatine kinase U-type, mitochondrial (CKMT1A, Homo sapiens, UniProt P12532, E265Q) | substrate, Kinase-Glo luminescence | – | pH 7.0, reverse reaction, E227Q mutant, with: second substrate in excess | – | kcat | 0.0005 ± 0.0002 s⁻¹
O=C1NC(=O)C(c2cn(CCCn3ccnc3)c3ccccc23)=C1Nc1ccccc1 | TRPM8 | antagonist | HEK293 | 5 µM | reference: control | remaining activity | 100 ± 5.62%

Compound | target | assay | test system | setting | how to read | quantity | value
CCCCCCCCCCNc1cc(=O)n(C)c(=O)[nH]1 | FFAR4 | antagonist, β-arrestin recruitment | CHO cells | 10 µM | – | inhibition | 15 ± 1%
c1ccc(-c2[nH]ncc2-c2ccnc3ccccc23)nc1 | TRPM8 | antagonist | HEK293 | 5 µM | reference: control | remaining activity | 105 ± 6.32%
NC(=O)NOCCCCCCCCCC[P+](c1ccccc1)(c1ccccc1)c1ccccc1.O=C([O-])C(F)(F)F | NADH dehydrogenase [ubiquinone] iron-sulfur protein 7, mitochondrial/NADH dehydrogenase [ubiquinone] iron-sulfur protein 2, mitochondrial/MT-ND1 | complex I-dependent respiration, Seahorse XF96 | HCT-116 | 15 µM, 24 h | reference: control | oxygen consumption rate | 21.1 ± 4.73%
O=C(NC1CCC1)c1ccc2nc(-c3cccc(NS(=O)(=O)NCCN4CCCCC4)c3)cn2c1 | Protein ENL (MLLT1, Homo sapiens, UniProt Q03111) | degrader, immunoblot, measured: MLLT1 | – | 10 µM, 96 h | reference: DMSO control | protein level | 113%
CNc1nnc(Sc2cnn(-c3ccccc3)c(=O)c2Cl)s1 | GAP50 | binding, surface plasmon resonance | – | 1:1 binding model | – | kon | 1960 M⁻¹ s⁻¹
CCCNc1cc(=O)[nH]c(=O)[nH]1 | FFAR4 | antagonist, β-arrestin recruitment | CHO cells | 10 µM, with: 4 µM TUG-891 | – | inhibition | 21 ± 3%
O=C(COP(=O)(O)O)[C@@H](O)[C@H](O)[C@H](O)COP(=O)(O)O | PGM1 (Homo sapiens, UniProt P36871) | – | – | 0.125 mM, unit not given | reference: activity at 0 mM set to 100 | enzyme activity | 102 and 103 and 99.8
COc1ccc(F)cc1C(=O)NCc1ccc(-c2nn([C@@H](C)C(F)(F)F)c(N)c2C(N)=O)cc1 | Tyrosine-protein kinase ABL2 (ABL2, Homo sapiens, UniProt P42684) | kinase activity, inhibitor, HotSpot radiometric | – | 100 nM, with: ATP 10 µM | – | remaining activity | 88.2 ± 0.2%
COc1ccc(CCNc2cc(=O)[nH]c(=O)[nH]2)cc1OC | FFAR4 | agonist, β-arrestin recruitment | CHO cells | 10 µM | – | activation | 1 ± 1%
CCCCCCCCCCCCO[C@@H]1O[C@H](CO)[C@@H](O[C@H]2O[C@H](CO)[C@@H](O)[C@H](O)[C@H]2O)[C@H](O)[C@H]1O | Glucagon receptor (GCGR, Homo sapiens, UniProt P47871) | CPM thermal shift | – | – | – | melting temperature | 43.5 ± 0.4 °C
Cc1[nH]c(N)nc1CCC(=O)c1cc(F)cc(F)c1.Cl | Voltage-gated hydrogen channel 1 (HVCN1, Homo sapiens, UniProt Q96D96, F150A) | proton current, inhibitor, inside-out patch clamp | – | – | – | Hill coefficient | 1.24 ± 0.08
Nc1ncnc2c1nc(Sc1ccc(Cl)cc1)n2[C@@H]1O[C@@H]2COP(=O)(O)O[C@H]2[C@H]1O | anti-cAMP antibody | antibody binding, competitive cAMP EIA | – | concentration not given, acetylated samples | reference: EC50 cAMP over EC50 cpd, higher = stronger binding | relative binding affinity | 0.0005
CCCCCCCCNc1cc(=O)n(C)c(=O)n1C | FFAR4 | agonist, β-arrestin recruitment | CHO cells | 10 µM | – | activation | 1%
NC(=O)NOCCCCCCCCCCCCCCCCCCCC[P+](c1ccccc1)(c1ccccc1)c1ccccc1.O=C([O-])C(F)(F)F | NADH dehydrogenase [ubiquinone] iron-sulfur protein 7, mitochondrial/NADH dehydrogenase [ubiquinone] iron-sulfur protein 2, mitochondrial/MT-ND1 | complex I-dependent respiration, Seahorse XF96 | HCT-116 | 0.1 µM, 24 h | reference: control | oxygen consumption rate | 101 ± 8.97%
Nc1ncnc2c1ncn2C(C=O)OC(C=O)CO (stereo not drawn) | SART3 | co-immunoprecipitation | HEK293T expressing GFP-RMET | 25 µM, 3 days | – | SART3 binding | decreased
NC(=O)NOCCCCCCCCCCCCCC[P+](c1ccccc1)(c1ccccc1)c1ccccc1.O=C([O-])C(F)(F)F | NADH dehydrogenase [ubiquinone] iron-sulfur protein 7, mitochondrial/NADH dehydrogenase [ubiquinone] iron-sulfur protein 2, mitochondrial/MT-ND1 | complex I-dependent respiration, Seahorse XF96 | HCT-116 | 0.75 µM, 24 h | reference: control | oxygen consumption rate | 57.9 ± 5.35%
O=C(O)CCCc1c[nH]c2ccccc12 | Germin-like protein subfamily 3 member 1 (GLP1, Arabidopsis thaliana, UniProt P94040) | microscale thermophoresis | Arabidopsis protoplast extract | concentration not given | – | binding | binds
CN([C@@H](Cc1ccc(OS(=O)(=O)c2cccc3cnccc23)cc1)C(=O)N1CCN(c2ccccc2)CC1)S(=O)(=O)c1cccc2cnccc12 | TRPM8 | antagonist | HEK293 | 5 µM | reference: control | remaining activity | 98.1 ± 3.02%
N=C(N)NCCCCC(=O)Nc1cc(C(F)(F)F)cc(NC(=O)c2cc(C(=O)Nc3cc(C(F)(F)F)cc(NC(=O)CCCCNC(=N)N)c3O[C@@H]3CCNC3)ncn2)c1O[C@@H]1CCNC1 | GAP50 | surface plasmon resonance | – | – | – | kon | 21200 M⁻¹ s⁻¹
NC(=O)NOCCCCCCCCCCCC[P+](c1ccccc1)(c1ccccc1)c1ccccc1.O=C([O-])C(F)(F)F | NADH dehydrogenase [ubiquinone] iron-sulfur protein 7, mitochondrial/NADH dehydrogenase [ubiquinone] iron-sulfur protein 2, mitochondrial/MT-ND1 | complex I-dependent respiration, Seahorse XF96 | HCT-116 | 1.5 µM, 24 h | reference: control | oxygen consumption rate | 60.2 ± 2.79%
Nc1ccc(C(=O)O)cc1 | BEST1, with wild-type BEST1 (Homo sapiens, UniProt O76090, L234P) | ion current, whole-cell patch clamp | HEK293 co-expressing mutant and wild-type | concentration not given, voltage -100 mV | – | current density | -15.5 pA/pF and -8.52 pA/pF and -25.4 pA/pF and -51.5 pA/pF and -14.3 pA/pF and -21.3 pA/pF

For quick reference, copied from above:
Compound | target | assay | test system | setting | how to read | quantity | value
CCCCCCCCCCCCO[C@@H]1O[C@H](CO)[C@@H](O[C@H]2O[C@H](CO)[C@@H](O)[C@H](O)[C@H]2O)[C@H](O)[C@H]1O | Glucagon receptor (GCGR, Homo sapiens, UniProt P47871) | CPM thermal shift | – | – | – | melting temperature | 43.5 ± 0.4 °C
COc1ccc(F)cc1C(=O)NCc1ccc(-c2nn([C@@H](C)C(F)(F)F)c(N)c2C(N)=O)cc1 | Tyrosine-protein kinase ABL2 (ABL2, Homo sapiens, UniProt P42684) | kinase activity, inhibitor, HotSpot radiometric | – | 100 nM, with: ATP 10 µM | – | remaining activity | 88.2 ± 0.2%
Cc1ccc(S(=O)(=O)NCc2ccc(CNC(=O)c3ccccc3)cc2)cc1 | C-X-C chemokine receptor type 4 (CXCR4, Homo sapiens, UniProt P61073) | binding, inhibitor, competitive binding | MDA-MB-231 | with: biotinylated TN14003 | – | EC | > 1000 nM
Cc1[nH]c(N)nc1CCC(=O)c1cc(F)cc(F)c1.Cl | Voltage-gated hydrogen channel 1 (HVCN1, Homo sapiens, UniProt Q96D96, F150A) | proton current, inhibitor, inside-out patch clamp | – | – | – | Hill coefficient | 1.24 ± 0.08
O=C(NC1CCC1)c1ccc2nc(-c3cccc(NS(=O)(=O)NCCN4CCCCC4)c3)cn2c1 | Protein ENL (MLLT1, Homo sapiens, UniProt Q03111) | degrader, immunoblot, measured: MLLT1 | – | 10 µM, 96 h | reference: DMSO control | protein level | 113%
CNC(=O)[C@@]12C[C@@H]1[C@@H](n1cnc3c(NCCc4ccc(O)c(O)c4)nc(C#Cc4ccc(Br)s4)nc31)[C@H](O)[C@@H]2O | Adenosine receptor A3 (Mus musculus, UniProt Q61618) | radioligand binding | HEK293 membranes | – | reference: mouse A3 over human A3 affinity | selectivity ratio | 23 to 25 fold
